{"data": "Measured values from different studies", "cell line": "HeLa", "note": "Each line is one published result; not all experiments were run side by side. Numbers after ± are the reported error."}
{"SMILES": "CCCCCCCCCCCC[C@@H](O)[C@H]1CC[C@H]([C@H](O)CCCCCCCCCCCCCCC2=C[C@H](C)OC2=O)O1", "test": "MTT", "conditions": "concentration not given, 72 h", "quantity": "cytotoxicity", "result": "inactive"}
{"SMILES": "CCCCN(CCCC)CC(O)COc1c2ccoc2c(OC)c2oc(CC)cc(=O)c12 (stereo not shown)", "test": "MTT", "how to read": "reference: IC50 HaCaT over IC50 HeLa", "quantity": "selectivity index", "result": 1.94}
{"SMILES": "CC(C)C12OC1C1OC13C1(C)CCC4=C(COC4=O)C1CC1OC13C2OC(=O)CCCOC1OC(CO)C(O)C(O)C1O (stereo not shown)", "test": "Hoechst staining", "conditions": "1 µM, 6% DMSO", "quantity": "cells with nuclear fragmentation", "result": "23%"}
{"SMILES": "CC[C@H](C)[C@@H]([C@@H](CC(=O)N1CCC[C@H]1[C@H](OC)[C@@H](C)C(=O)NC(Cc1ccccc1)C(C)OC)OC)N(C)C(=O)[C@@H](NC(=O)[C@H]([C@@H](C)CC)N(C)C)C(C)C (stereo partly shown)", "test": "cytotoxicity", "how to read": "reference: compound over MMAF, higher = more active than MMAF", "quantity": "potency ratio", "result": "10 fold"}
{"SMILES": "CC=C(C)C(=O)OC1C(O)C2OC(COC(=O)CCCCCCCCCC(CCCCC)OC3OC(C)C(OC(C)=O)C(O)C3O2)C1OC(=O)C=Cc1ccccc1 (stereo not shown)", "how to read": "reference: IC50 MCF-10A over IC50 HeLa", "quantity": "selectivity index", "result": 2.06}
{"SMILES": "CC[C@H](C)[C@@H]([C@@H](CC(=O)N1CCC[C@H]1[C@H](OC)[C@@H](C)C(=O)N[C@@H](Cc1ccccc1)C(=O)O)OC)N(C)C(=O)[C@@H](NC(=O)[C@H](C(C)C)N(C)C(=O)CCSSC[C@H](NC(=O)[C@@H](NC(=O)CNC(=O)[C@H](CCC(=O)O)NC(=O)[C@H](CC(=O)O)NC(=O)[C@H](C)NC(=O)[C@H](CC(=O)O)NC(=O)[C@@H](NC(=O)[C@H](CC(C)C)NC(=O)[C@H](CC(C)C)NC(=O)[C@H](C)NC(=O)[C@H](CC(C)C)NC(=O)[C@H](CC(=O)O)NC(=O)[C@H](CC(C)C)NC(=O)[C@H](CC(C)C)NC(=O)[C@H](CC(C)C)NC(=O)[C@H](CC(C)C)NC(=O)[C@@H]1CCCN1C(=O)[C@@H](NC(=O)[C@@H](NC(=O)[C@H](Cc1ccccc1)NC(=O)[C@H](CC(C)C)NC(=O)[C@H](Cc1c[nH]c2ccccc12)NC(=O)[C@H](CC(=O)O)NC(=O)[C@H](C)NC(=O)[C@H](Cc1ccc(O)cc1)NC(=O)[C@H](CCCNC(=N)N)NC(=O)[C@H](C)NC(=O)[C@H](Cc1c[nH]c2ccccc12)NC(=O)[C@H](Cc1ccc(O)cc1)NC(=O)[C@@H](NC(=O)[C@@H]1CCCN1C(=O)[C@H](CC(N)=O)NC(=O)[C@H](CCC(N)=O)NC(=O)[C@H](CCC(=O)O)NC(=O)CNC(=O)CN)[C@@H](C)CC)[C@@H](C)O)[C@@H](C)O)C(C)C)[C@@H](C)O)C(=O)NCC(N)=O)C(C)C", "test": "MTT", "conditions": "pH 6.0", "how to read": "reference: without Ca2+ over 1.2 mM Ca2+", "quantity": "IC50 fold decrease", "result": "5 fold"}
{"SMILES": "CC(=O)N[C@H](CCCNC(=N)N)C(=O)N[C@H](CCCCN)C(=O)N[C@H](Cc1ccc(O)cc1)C(=O)N[C@H](CS)C(N)=O", "test": "colony formation", "conditions": "50 nM, 24 h", "quantity": "inhibition", "result": "≤ 50%"}
{"SMILES": "CC1=CC=c2ccc3c4c2[N]1[Re](=[C]=O)(=[C]=O)(=[C]=O)([C]#[N+]c1c(C)cccc1C)[N]4C(C)=CC=3.O=S(=O)([O-])C(F)(F)F", "test": "MitoTracker microscopy", "conditions": "10 µM, 14 min", "how to read": "reference: untreated", "quantity": "mitochondria number", "result": "2 fold"}
{"SMILES": "C[C@H](NC(=O)[C@H](CCCNC(=N)N)NC(=O)[C@H](CCC(=O)O)NC(=O)[C@H](CCCNC(=N)N)NC(=O)[C@H](CCCNC(=N)N)NC(=O)[C@@H](NC(=O)[C@H](CCCNC(=N)N)NC(=O)[C@H](C)NC(=O)[C@H](CCCNC(=N)N)NC(=O)[C@H](CCC(=O)O)NC(=O)[C@@H](N)CCCNC(=N)N)[C@@H](C)O)C(=O)N[C@@H](CCCNC(=N)N)C(=O)N[C@H](C(=O)N[C@@H](CCCNC(=N)N)C(=O)N[C@@H](CCC(=O)O)C(=O)N[C@@H](CCCNC(=N)N)C(=O)N[C@@H](C)C(=O)N[C@@H](CCCNC(=N)N)C(=O)N[C@H](C(=O)N[C@@H](CCCNC(=N)N)C(=O)O)[C@@H](C)O)[C@@H](C)O", "test": "refers to: VEGF165", "conditions": "concentration not given", "quantity": "expression level", "result": "decreased"}
{"SMILES": "Cc1ccc2ccc3ccc(C)nc3c2n1.O.[99Tc+].[C-]#[O+].[C-]#[O+].[C-]#[O+]", "test": "flow cytometry", "conditions": "10 µM, 24 h", "quantity": "G2/M phase cells", "result": "51.6%"}
{"SMILES": "CC(=O)N[C@@H](CCCNC(=N)N)C(=O)N[C@@H](CCCNC(=N)N)C(=O)N[C@@H](CCCNC(=N)N)C(=O)N[C@@H](CCCNC(=N)N)C(=O)N[C@@H](CCCNC(=N)N)C(=O)N[C@@H](CCCNC(=N)N)C(=O)N[C@@H](CCCNC(=N)N)C(=O)N[C@@H](CCCNC(=N)N)C(=O)N[C@@H](CCCNC(=N)N)C(=O)N[C@@H](CCCNC(=N)N)C(=O)NCC(=O)N[C@@H](COP(=O)(O)O)C(=O)N1CCC[C@H]1C(=O)N[C@H](C(=O)N[C@@H](Cc1ccccc1)C(=O)O)[C@@H](C)O", "test": "DNA damage, immunostaining", "conditions": "10 µM, 30 min, together with: ionizing radiation 10 Gy", "quantity": "γH2AX-positive cells", "result": "47.1 ± 9.85%"}
{"SMILES": "Nc1ncnc2c1ncn2CC(=O)N[C@@H](Cc1ccccc1)C(=O)N[C@@H](Cc1ccccc1)C(=O)N[C@@H](Cc1ccc(OP(=O)(O)O)cc1)C(=O)O", "test": "MTT", "conditions": "500 µM, 72 h", "quantity": "viability", "result": "100%"}
{"SMILES": "COc1cc(/C=C(\\C#N)C(=O)Nc2nnc(C(F)(F)F)s2)ccc1OC(=O)N1CCN(C(=O)CCCC(=O)NCCCC[C@@H]2NC(=O)[C@@H](Cc3ccc(O)cc3)NC(=O)[C@H](CC(=O)O)NC(=O)CNC(=O)[C@H](CCCNC(=N)N)NC2=O)CC1", "test": "cell growth or viability, MTT", "conditions": "48 h", "quantity": "GI50", "result": "72 µM"}
{"note": "A few entries again:"}
{"SMILES": "C[C@H](NC(=O)[C@H](CCCNC(=N)N)NC(=O)[C@H](CCC(=O)O)NC(=O)[C@H](CCCNC(=N)N)NC(=O)[C@H](CCCNC(=N)N)NC(=O)[C@@H](NC(=O)[C@H](CCCNC(=N)N)NC(=O)[C@H](C)NC(=O)[C@H](CCCNC(=N)N)NC(=O)[C@H](CCC(=O)O)NC(=O)[C@@H](N)CCCNC(=N)N)[C@@H](C)O)C(=O)N[C@@H](CCCNC(=N)N)C(=O)N[C@H](C(=O)N[C@@H](CCCNC(=N)N)C(=O)N[C@@H](CCC(=O)O)C(=O)N[C@@H](CCCNC(=N)N)C(=O)N[C@@H](C)C(=O)N[C@@H](CCCNC(=N)N)C(=O)N[C@H](C(=O)N[C@@H](CCCNC(=N)N)C(=O)O)[C@@H](C)O)[C@@H](C)O", "test": "refers to: VEGF165", "conditions": "concentration not given", "quantity": "expression level", "result": "decreased"}
{"SMILES": "CCCCCCCCCCCC[C@@H](O)[C@H]1CC[C@H]([C@H](O)CCCCCCCCCCCCCCC2=C[C@H](C)OC2=O)O1", "test": "MTT", "conditions": "concentration not given, 72 h", "quantity": "cytotoxicity", "result": "inactive"}
